Results from different studies.
Each line is one published result; not all experiments were run side by side. ± gives the spread as reported.
Sigmar1: Sigma non-opioid intracellular receptor 1 (Sigmar1, Rattus norvegicus, UniProt Q9R0C9)
UniProt Q9R0C9, sequence (whole entry, looked up): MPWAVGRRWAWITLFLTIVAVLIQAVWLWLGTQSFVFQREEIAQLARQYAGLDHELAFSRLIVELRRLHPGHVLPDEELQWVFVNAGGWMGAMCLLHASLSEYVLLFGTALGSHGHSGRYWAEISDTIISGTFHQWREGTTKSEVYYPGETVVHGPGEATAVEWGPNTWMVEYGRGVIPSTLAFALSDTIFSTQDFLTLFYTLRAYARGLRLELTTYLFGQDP
hdac10: Polyamine deacetylase HDAC10 (hdac10, Danio rerio, UniProt F1QCV2)
UniProt F1QCV2, sequence (whole entry, looked up): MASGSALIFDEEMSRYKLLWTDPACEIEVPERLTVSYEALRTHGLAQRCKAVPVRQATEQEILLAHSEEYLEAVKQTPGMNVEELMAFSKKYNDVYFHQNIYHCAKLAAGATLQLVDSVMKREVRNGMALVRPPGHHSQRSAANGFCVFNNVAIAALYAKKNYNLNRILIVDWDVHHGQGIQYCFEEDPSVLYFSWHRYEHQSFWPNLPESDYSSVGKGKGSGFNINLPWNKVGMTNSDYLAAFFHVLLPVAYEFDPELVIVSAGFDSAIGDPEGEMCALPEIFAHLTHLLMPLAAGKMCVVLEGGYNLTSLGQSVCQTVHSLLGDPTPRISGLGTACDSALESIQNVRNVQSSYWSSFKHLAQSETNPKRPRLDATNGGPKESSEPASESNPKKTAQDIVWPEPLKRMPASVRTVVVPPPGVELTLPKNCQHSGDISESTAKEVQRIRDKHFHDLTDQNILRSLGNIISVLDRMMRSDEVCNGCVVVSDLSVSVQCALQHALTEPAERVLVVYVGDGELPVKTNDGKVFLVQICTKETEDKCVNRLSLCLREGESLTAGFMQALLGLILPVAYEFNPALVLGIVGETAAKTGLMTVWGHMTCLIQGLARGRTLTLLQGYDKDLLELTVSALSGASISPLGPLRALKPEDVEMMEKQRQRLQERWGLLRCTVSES
uidA: Beta-glucuronidase (uidA, Escherichia coli, UniProt P05804)
Ectonucleoside triphosphate diphosphohydrolase 8: Ectonucleoside triphosphate diphosphohydrolase 8 (Homo sapiens, UniProt Q5MY95)
UniProt Q5MY95, sequence (whole entry, looked up): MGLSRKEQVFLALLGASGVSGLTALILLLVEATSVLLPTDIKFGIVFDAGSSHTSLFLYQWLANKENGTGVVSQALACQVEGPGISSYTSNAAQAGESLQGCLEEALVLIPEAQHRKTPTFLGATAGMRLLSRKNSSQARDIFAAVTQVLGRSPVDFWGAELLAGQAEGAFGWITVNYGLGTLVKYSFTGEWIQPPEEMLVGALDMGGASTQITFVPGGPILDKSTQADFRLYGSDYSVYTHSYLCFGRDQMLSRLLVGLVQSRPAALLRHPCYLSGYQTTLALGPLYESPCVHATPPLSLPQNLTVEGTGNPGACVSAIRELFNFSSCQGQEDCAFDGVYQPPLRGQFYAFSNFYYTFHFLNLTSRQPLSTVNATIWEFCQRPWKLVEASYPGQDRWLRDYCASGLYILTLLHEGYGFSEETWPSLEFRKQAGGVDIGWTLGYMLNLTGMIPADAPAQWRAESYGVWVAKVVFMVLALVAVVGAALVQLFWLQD
AKR1C2: Aldo-keto reductase family 1 member C2 (AKR1C2, Homo sapiens, UniProt P52895)
UniProt P52895, sequence (whole entry, looked up): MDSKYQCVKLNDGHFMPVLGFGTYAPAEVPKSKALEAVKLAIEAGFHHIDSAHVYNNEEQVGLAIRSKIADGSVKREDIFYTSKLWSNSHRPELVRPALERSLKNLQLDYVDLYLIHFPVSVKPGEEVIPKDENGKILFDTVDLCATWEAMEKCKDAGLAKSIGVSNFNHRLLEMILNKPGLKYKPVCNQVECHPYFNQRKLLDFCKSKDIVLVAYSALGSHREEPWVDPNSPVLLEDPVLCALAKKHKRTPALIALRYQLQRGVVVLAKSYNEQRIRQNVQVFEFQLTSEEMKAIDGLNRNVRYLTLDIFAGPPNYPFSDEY
CDK4 with cyclin D3: Cyclin-dependent kinase 4, with cyclin D3 (CDK4, Homo sapiens, UniProt P11802)
UniProt P11802, sequence (whole entry, looked up): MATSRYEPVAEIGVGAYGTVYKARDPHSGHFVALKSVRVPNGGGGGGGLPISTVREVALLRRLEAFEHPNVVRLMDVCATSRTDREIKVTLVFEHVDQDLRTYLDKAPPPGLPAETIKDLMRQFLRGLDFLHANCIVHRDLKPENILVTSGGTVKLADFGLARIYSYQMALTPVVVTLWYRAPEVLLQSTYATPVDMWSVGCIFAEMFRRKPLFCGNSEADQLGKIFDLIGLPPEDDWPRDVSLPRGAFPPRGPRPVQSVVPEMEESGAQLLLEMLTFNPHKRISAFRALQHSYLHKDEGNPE
ELANE: Neutrophil elastase (ELANE, Homo sapiens, UniProt P08246)
UniProt P08246, sequence (whole entry, looked up): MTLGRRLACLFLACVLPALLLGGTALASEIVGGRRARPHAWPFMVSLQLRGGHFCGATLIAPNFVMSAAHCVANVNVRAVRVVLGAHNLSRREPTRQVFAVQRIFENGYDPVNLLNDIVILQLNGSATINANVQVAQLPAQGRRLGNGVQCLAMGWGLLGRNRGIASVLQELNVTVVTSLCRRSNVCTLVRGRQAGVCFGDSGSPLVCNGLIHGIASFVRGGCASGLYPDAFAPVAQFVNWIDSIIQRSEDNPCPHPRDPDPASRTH
CA2: Carbonic anhydrase 2 (CA2, Bos taurus, UniProt P00921)
UniProt P00921, sequence (whole entry, looked up): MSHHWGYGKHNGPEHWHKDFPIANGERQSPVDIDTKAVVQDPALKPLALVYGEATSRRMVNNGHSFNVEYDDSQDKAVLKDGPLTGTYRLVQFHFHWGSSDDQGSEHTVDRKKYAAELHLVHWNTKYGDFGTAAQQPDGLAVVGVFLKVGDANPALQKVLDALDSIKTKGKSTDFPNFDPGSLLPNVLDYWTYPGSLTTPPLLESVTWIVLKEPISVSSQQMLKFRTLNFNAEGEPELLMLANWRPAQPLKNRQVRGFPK
AMY2: Pancreatic alpha-amylase (AMY2, Sus scrofa, UniProt P00690)
PDK1: [Pyruvate dehydrogenase (acetyl-transferring)] kinase isozyme 1, mitochondrial (PDK1, Homo sapiens, UniProt Q15118)
UniProt Q15118, sequence (whole entry, looked up): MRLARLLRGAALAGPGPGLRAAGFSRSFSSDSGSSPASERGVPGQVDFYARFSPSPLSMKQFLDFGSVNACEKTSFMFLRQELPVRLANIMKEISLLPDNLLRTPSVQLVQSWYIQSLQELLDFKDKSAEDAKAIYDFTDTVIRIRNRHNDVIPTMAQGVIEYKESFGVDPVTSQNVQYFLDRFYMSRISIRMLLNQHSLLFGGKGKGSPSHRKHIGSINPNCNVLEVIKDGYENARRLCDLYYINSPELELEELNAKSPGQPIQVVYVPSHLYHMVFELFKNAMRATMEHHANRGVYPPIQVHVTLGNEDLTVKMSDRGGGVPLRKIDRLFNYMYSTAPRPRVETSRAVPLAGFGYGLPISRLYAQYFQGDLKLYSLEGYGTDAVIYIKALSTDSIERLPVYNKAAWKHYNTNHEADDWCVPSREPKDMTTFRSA
UniProt Q15858, sequence (whole entry, unmodified, looked up): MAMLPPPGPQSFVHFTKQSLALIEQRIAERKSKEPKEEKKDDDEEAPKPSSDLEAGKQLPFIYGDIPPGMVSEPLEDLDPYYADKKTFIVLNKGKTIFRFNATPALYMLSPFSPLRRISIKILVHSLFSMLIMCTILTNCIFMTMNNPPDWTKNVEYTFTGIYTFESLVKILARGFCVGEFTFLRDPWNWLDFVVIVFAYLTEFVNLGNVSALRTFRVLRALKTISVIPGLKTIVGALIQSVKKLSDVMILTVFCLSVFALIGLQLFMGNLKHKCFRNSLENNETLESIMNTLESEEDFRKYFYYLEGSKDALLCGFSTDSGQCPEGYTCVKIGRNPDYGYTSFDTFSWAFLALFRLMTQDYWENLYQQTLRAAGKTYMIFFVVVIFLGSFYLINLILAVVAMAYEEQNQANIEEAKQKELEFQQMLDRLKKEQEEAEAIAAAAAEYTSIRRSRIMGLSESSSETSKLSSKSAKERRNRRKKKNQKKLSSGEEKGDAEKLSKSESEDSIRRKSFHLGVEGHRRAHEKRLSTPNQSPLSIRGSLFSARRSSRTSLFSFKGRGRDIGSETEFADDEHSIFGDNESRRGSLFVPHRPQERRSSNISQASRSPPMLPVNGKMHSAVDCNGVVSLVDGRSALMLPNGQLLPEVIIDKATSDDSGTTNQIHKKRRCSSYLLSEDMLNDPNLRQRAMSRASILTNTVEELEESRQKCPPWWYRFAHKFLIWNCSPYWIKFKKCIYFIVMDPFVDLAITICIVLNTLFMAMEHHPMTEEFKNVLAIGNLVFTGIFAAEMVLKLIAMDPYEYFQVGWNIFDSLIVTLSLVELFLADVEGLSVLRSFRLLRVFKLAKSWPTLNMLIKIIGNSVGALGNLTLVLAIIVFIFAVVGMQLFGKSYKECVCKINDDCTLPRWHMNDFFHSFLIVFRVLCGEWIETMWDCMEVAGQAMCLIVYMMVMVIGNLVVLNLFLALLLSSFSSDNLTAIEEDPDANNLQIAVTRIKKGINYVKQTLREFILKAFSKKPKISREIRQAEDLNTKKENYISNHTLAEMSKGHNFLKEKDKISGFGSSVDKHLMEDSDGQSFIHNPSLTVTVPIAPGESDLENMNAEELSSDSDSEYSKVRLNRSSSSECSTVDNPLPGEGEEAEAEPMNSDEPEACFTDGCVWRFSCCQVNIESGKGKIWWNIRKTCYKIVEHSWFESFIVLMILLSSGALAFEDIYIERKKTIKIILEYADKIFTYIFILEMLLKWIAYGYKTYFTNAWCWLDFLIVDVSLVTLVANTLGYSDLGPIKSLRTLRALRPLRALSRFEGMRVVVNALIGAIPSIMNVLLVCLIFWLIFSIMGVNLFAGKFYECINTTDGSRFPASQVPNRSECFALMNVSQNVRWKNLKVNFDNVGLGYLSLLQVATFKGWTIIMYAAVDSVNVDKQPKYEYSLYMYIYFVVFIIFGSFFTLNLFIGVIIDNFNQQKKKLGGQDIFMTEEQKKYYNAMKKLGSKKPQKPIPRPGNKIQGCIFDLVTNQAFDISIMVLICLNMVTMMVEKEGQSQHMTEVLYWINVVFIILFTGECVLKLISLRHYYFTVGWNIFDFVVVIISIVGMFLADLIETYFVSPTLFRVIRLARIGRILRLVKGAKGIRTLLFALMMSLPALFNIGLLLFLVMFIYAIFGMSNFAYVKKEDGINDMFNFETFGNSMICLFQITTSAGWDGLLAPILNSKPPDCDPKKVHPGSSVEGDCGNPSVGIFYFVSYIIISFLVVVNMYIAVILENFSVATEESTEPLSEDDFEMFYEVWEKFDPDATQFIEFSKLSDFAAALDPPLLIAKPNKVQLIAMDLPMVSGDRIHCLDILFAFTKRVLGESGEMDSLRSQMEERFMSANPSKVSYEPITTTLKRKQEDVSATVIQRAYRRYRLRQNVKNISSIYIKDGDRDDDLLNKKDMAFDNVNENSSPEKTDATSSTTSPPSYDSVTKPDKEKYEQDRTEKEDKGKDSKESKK

For `C/C(=N\OCCN1CCCC1)c1ccccc1C(F)(F)F`, the inhibition was 85.8% (Sigmar1; radioligand binding; 10 µM).
The inhibition of `O=C(NO)c1coc(-c2cccs2)n1` is reported as under 10% (hdac10; 0.1 µM).
`O=C(Nc1nc2ccccc2s1)Nc1ccccc1C(F)(F)F` gave an inhibition of 52.9% (uidA; enzyme activity, inhibitor, absorbance; 100 µM).
`C/C(=N\OCCCN(C)Cc1ccccc1)c1ccc(C(F)(F)F)cc1` gave an inhibition of 100% (Sigmar1; radioligand binding; 10 µM).
`O=C(Nc1ccc(Cl)cc1)c1cccc(S(=O)(=O)N2CCOCC2)c1` gave an inhibition of 24% (Ectonucleoside triphosphate diphosphohydrolase 8; enzyme activity, inhibitor, absorbance; 100 µM).
For `O=c1c(-c2nc3ccccc3s2)cc2c(n1NS(=O)(=O)c1ccc(Cl)cc1)CCCCCC2`, the inhibition was 20.3% (Ubiquitin carboxyl-terminal hydrolase 7 (USP7, Homo sapiens, UniProt Q93009); enzyme activity, inhibitor, fluorescence; 1 µg/mL).
For `COc1cc2c(cc1Cl)[C@H]1CC[C@@]3(C)C(=O)CC[C@H]3[C@@H]1CC2`, the inhibition was 76.3% (AKR1C2; enzyme activity, inhibitor, absorbance; 100 µM, pH 9).
`CCC(=O)N(C)c1ccc(Cl)c(Cl)c1` gave an inhibition of 21.9% (Adenosine receptor A1 (ADORA1, Homo sapiens, UniProt P30542); ligand displacement, radioligand; 10 µM).
Under inhibition, `Nc1ncnc2c1ncn2[C@@H]1O[C@H](CNc2c(NC(=O)CCC(=O)c3ccccc3C(=O)O)c(=O)c2=O)[C@@H](O)[C@H]1O` is recorded as “inactive” (2-succinylbenzoate--CoA ligase (menE, Escherichia coli, UniProt P37353); enzyme activity, inhibitor, MenE–MenB coupled; concentration not given).
For `Nc1ccccc1NC(=O)c1ccc(Nc2nccc(-c3cn(C4CCCCC4)nn3)n2)cc1`, the inhibition was 6.15% (CDK4 with cyclin D3; enzyme activity, inhibitor, TR-FRET; 50 nM).
For `CCCC1CCC(c2ccc(C(=O)NC(C(=O)O)C(C)C)cc2)CC1` (stereo not drawn), the inhibition was 41 ± 12.8% (Sodium channel protein type 9 subunit alpha (SCN9A, Homo sapiens, UniProt Q15858, R1619A); inhibitor; 66 µM, R1608A mutant).
With `C/C(=N\OCCN1CCCCC1)c1ccccc1C(F)(F)F` the inhibition was 94.6% (Sigmar1; radioligand binding; 10 µM).
The inhibition of `O=C1CC(=O)c2cc(S(=O)(=O)n3cnc4ccccc43)ccc21` is reported as 53.5% (ELANE; enzyme activity, inhibitor, fluorescence; 50 µM).
With `O=C(CCCCCCN1CCN(c2ccc(Nc3ncc(F)c(-c4cn(C5CCCC5)nn4)n3)cc2)CC1)NO` the inhibition was 73.5% (CDK4 with cyclin D3; enzyme activity, inhibitor, TR-FRET; 50 nM).
For `COc1ccc(-n2c(-c3ccccc3)cs/c2=N/N=C/c2ccc(N3CCOCC3)cc2)cc1`, the inhibition was 80.7% (CA2; enzyme activity, inhibitor, absorbance; 500 µM).
With `COc1ccc(NC(=S)Nc2ccc3[nH]cnc3c2)cc1` the inhibition was 63.8% (uidA; enzyme activity, inhibitor, absorbance; 100 µM).
The inhibition of `C=CC(=O)Nc1cccc(-c2cnc3[nH]cc(C(=O)NC(C)(C)C)c3n2)c1` is reported as over 90% (NUAK family SNF1-like kinase 1 (NUAK1, Homo sapiens, UniProt O60285); enzyme activity, inhibitor; 0.1 µM).
`C[C@]12CC[C@@H]3c4cc(Br)c(O)cc4CC[C@H]3[C@@H]1CCC2=O` gave an inhibition of 25% (AKR1C2; enzyme activity, inhibitor, absorbance; 100 µM, pH 9).
With `O=C(/C=C/c1ccc2c(c1)OCO2)c1ccc(Cl)s1` the inhibition was 73.5% (Amine oxidase [flavin-containing] B (MAOB, Homo sapiens, UniProt P27338); enzyme activity, inhibitor, fluorescence; 1 µM).
The inhibition of `O=C(/C=C/c1ccc2ccccc2c1)NO` is reported as 64% (hdac10; 1 µM).
`CC1=C2C(=O)C3CC[C@@H](C)C2(CC1)C3(C)C` (stereo partly drawn) gave an inhibition of 34.5 ± 1.3% (α-glucosidase (Saccharomyces cerevisiae); inhibitor; 10 µg/mL, with: pNPG).
`Cc1cccc(/C=C/C(=O)c2cnn(-c3ccccc3)c2C)c1` gave an inhibition of 18.1% (AMY2; enzyme activity, inhibitor, absorbance; 80 µM).
For `C[C@]12CC[C@@H]3c4cc(Cl)c(O)cc4CC[C@H]3[C@@H]1CCC2=O`, the inhibition was 53% (AKR1C2; enzyme activity, inhibitor, absorbance; 10 µM, pH 9).
`Nc1nc2cc(CC[C@H]3C[C@@H](n4ccc5c(N)ncnc54)[C@H](O)[C@@H]3O)ccc2cc1Br` has an inhibition of over 80% (Protein arginine N-methyltransferase 5, with WDR77 (PRMT5, Homo sapiens, UniProt O14744); methyltransferase activity, inhibitor; 10 µM).
For `COc1cc(C(=O)NC2CCC(N3CCN(CC4CCC5(CCCC5)C4)CC3)CC2)c(F)cc1Nc1ncc2c(n1)N(C1CCCC1(F)F)CC(F)(F)C(=O)N2C` (stereo not drawn), the inhibition was 3.08% (Focal adhesion kinase 1 (PTK2, Homo sapiens, UniProt Q05397); cell-free assay, TR-FRET; 10 µM).
For `FC(F)(F)c1ccc(C(=NOCCCN2CCCCC2)c2ccccc2)cc1` (mixture of isomers), the inhibition was 99.9% (Sigmar1; radioligand binding; 10 µM).
The inhibition of `CCCCSc1nnc(-c2ccc(N)cc2)o1` is reported as 74.1% (Signal transducer and activator of transcription 3 (STAT3, Homo sapiens, UniProt P40763); phosphopeptide binding, AlphaScreen; 60 µg/mL).
For `Nc1ncnc2c1ncn2[C@@H]1O[C@H](COS(=O)(=O)NC(=O)[C@@H]2CCCN2)[C@@H](O)[C@H]1O`, inhibition read “inhibited” (Bifunctional glutamate/proline--tRNA ligase, prolyl-tRNA synthetase domain (EPRS1, Homo sapiens, UniProt P07814); binding, immobilised protein; 10 nM, with: [3H]-halofuginone).
For `O=C1CSC(c2cccc(Br)c2)N1c1cc(Cl)ccc1O` (stereo not drawn), inhibition read “inhibited” (ACTR3/Actin-related protein 2 (Homo sapiens, UniProt P61158+P61160); actin polymerization, pyrenyl-actin; concentration not given).
`CN(C)c1ccc(C(=O)NCc2ccc(C(=O)NO)cc2)cc1` gave an inhibition of under 10% (hdac10; 0.1 µM).
The inhibition of `CC[C@H](C)[C@H](NC(=O)[C@H](CCCNC(=N)N)NC(=O)[C@H](CCCCN)NC(=O)[C@@H]1CCCN1C(=O)[C@@H]1CCCN1CCCN(CC[C@H](N)C(=O)O)C[C@H]1O[C@@H](n2cnc3c(N)ncnc32)[C@H](O)[C@@H]1O)C(=O)N[C@@H](C)C(N)=O` is reported as under 20% (Histone-lysine N-methyltransferase EHMT2 (EHMT2, Homo sapiens, UniProt Q96KQ7); enzyme activity, inhibitor; 33 µM).
The inhibition of `Cc1cc(-c2nc(-c3cccc(S(N)(=O)=O)c3)no2)ccc1-c1ccncc1` is reported as at least 20% (Programmed cell death 1 ligand 1, with PD-1 (CD274, Homo sapiens, UniProt Q9NZQ7); PD-1/PD-L1 binding, inhibitor, TR-FRET; 25 µM).
For `COc1cc(/C=N\C(=S)NNC(=O)CC2C(=O)c3ccccc3C2=O)cc(OC)c1OC`, the inhibition was 35% (ELANE; enzyme activity, inhibitor, fluorescence; 100 µM).
For `C[C@]12CCC[C@H]1[C@@H]1CCc3c(cc(I)c(O)c3I)[C@H]1CC2`, the inhibition was 11.7% (AKR1C2; enzyme activity, inhibitor, absorbance; 100 µM, pH 9).
The inhibition of `O=C(c1cccc(S(=O)(=O)NC2CC2)c1)N1CCOCC1` is reported as 41% (Ectonucleoside triphosphate diphosphohydrolase 3 (Homo sapiens, UniProt O75355); enzyme activity, inhibitor, absorbance; 100 µM).
`COc1ccc(C(=O)NO)cc1OCc1ccccc1` has an inhibition of under 10% (hdac10; 0.1 µM).
With `N#Cc1c(NC(=O)CN2CCOCC2)sc2c1CCC(c1ccccc1)C2` (stereo not drawn) the inhibition was 21.4% (PDK1; enzyme activity, inhibitor, ATP luminescence; 100 µg/mL).
For `O=[N+]([O-])c1ccc(-c2cs/c(=N/N=C/c3ccc(N4CCOCC4)cc3)n2C2CCCCC2)cc1`, the inhibition was 89.6% (CA2; enzyme activity, inhibitor, absorbance; 500 µM).
`CC(=O)Nc1cc(COc2c(Cl)cc(CC(N)C(=O)O)cc2Cl)c2oc(-c3ccccc3)nc2c1` (stereo not drawn): inhibition “no inhibition” (SLC38A5 (Homo sapiens, UniProt Q8WUX1); glutamine uptake; Xenopus oocytes; 1 and 10 µM, 30 min, with: L-[14C]glutamine 50 µM).
`COC(=O)C(Cc1ccccn1)NC(=O)CCCCCCC(=O)NO` (stereo not drawn) gave an inhibition of under 10% (hdac10; 0.1 µM).
`C/C(=N\OCCCN1CCCCC1)c1ccc(S(C)(=O)=O)cc1` gave an inhibition of 70.3% (Sigmar1; radioligand binding; 1 µM).
For `CN(Cc1ccccc1)C(=O)c1cccc(S(=O)(=O)N2CCOCC2)c1`, the inhibition was 38% (Ectonucleoside triphosphate diphosphohydrolase 8; enzyme activity, inhibitor, absorbance; 100 µM).
For `N#Cc1cccc(Nc2ncnc3[nH]c4cc(Br)ccc4c23)c1`, the inhibition was 44.2% (Protein-tyrosine kinase 6 (PTK6, Homo sapiens, UniProt Q13882); enzyme activity, inhibitor, ADP detection; 2 µM).
`O=C(O[C@@H]1Cc2c(O)cc(O)cc2O[C@@H]1c1ccc(O)cc1)c1cc(O)c(O)c(O)c1` has an inhibition of 97% (Pancreatic triacylglycerol lipase (PNLIP, Sus scrofa, UniProt P00591); enzyme activity, inhibitor; 10 µM).
`C[C@]12CC[C@@H]3c4cc(I)c(O)cc4CC[C@H]3[C@@H]1CCC2=O` has an inhibition of 20.2% (AKR1C2; enzyme activity, inhibitor, absorbance; 10 µM, pH 9).
The inhibition of `CC(C)Cc1ccc(S(=O)(=O)N2CCN(Cc3noc(CCC(=O)NC4CCCCC4)n3)CC2)cc1` is reported as 28 ± 5% (Sodium channel protein type 9 subunit alpha (SCN9A, Homo sapiens, UniProt Q15858); sodium current, whole-cell patch clamp; HEK293, stable; 20 µM).
`COc1ccc2c(c1Cl)CC[C@@H]1[C@@H]2CC[C@@]2(C)C(=O)CC[C@@H]12` has an inhibition of 50% (AKR1C2; enzyme activity, inhibitor, absorbance; 10 µM, pH 9).
For `COc1cc(/C=C/C(=O)NO)ccc1OCc1ccccc1`, the inhibition was 17% (hdac10; 0.1 µM).
`COc1ccc2c(c1)CC[C@@H]1[C@@H]2CC[C@@]2(C)CCC[C@@H]12` gave an inhibition of 75% (AKR1C2; enzyme activity, inhibitor, absorbance; 100 µM, pH 9).
The inhibition of `CN(C)C(=O)c1ccc(S(=O)(=O)c2ccc(NC(=O)[C@@](C)(O)C(F)(F)F)c(Cl)c2)cc1` is reported as 86.4% (PDK1; kinase activity, inhibitor, Kinase-Glo; 10 µM, with: E2 subunit).
With `COc1ccc(C(=O)NO)cc1NC(=O)c1cccc(-c2ccccc2)c1` the inhibition was under 10% (hdac10; 1 µM).
With `CC(C)(O)CC(=O)CC(C(=O)O)C1CC[C@]2(C)C1CCC1[C@@]3(C)CC[C@H](O)C(C)(C)C3CC[C@]12C` (stereo partly drawn) the inhibition was 26.8% (AMY2; enzyme activity, inhibitor, absorbance; 250 µM).
`O=C(c1ccc(Oc2ccc(Cl)cc2)c([N+](=O)[O-])c1)C(Cl)Cl` gave an inhibition of 50.1% (PDK1; enzyme activity, inhibitor, ATP luminescence; 10 µM).
For `CCOC(=O)C1=C(C)NC2=C(C(=O)CC(C)(C)C2)C1c1ccc(OCC(=O)NN=Cc2cccc([N+](=O)[O-])c2)cc1OCC(=O)NN=Cc1cccc([N+](=O)[O-])c1` (stereo not drawn), the inhibition was 90.6% (Alpha-glucosidase MAL32 (MAL32, Saccharomyces cerevisiae, UniProt P38158); inhibitor; 0.5 mM, pH 6.8, 37 °C).

Repeated from above:
The inhibition of `Cc1cc(-c2nc(-c3cccc(S(N)(=O)=O)c3)no2)ccc1-c1ccncc1` is reported as at least 20% (Programmed cell death 1 ligand 1, with PD-1 (CD274, Homo sapiens, UniProt Q9NZQ7); PD-1/PD-L1 binding, inhibitor, TR-FRET; 25 µM).
For `COc1cc(/C=N\C(=S)NNC(=O)CC2C(=O)c3ccccc3C2=O)cc(OC)c1OC`, the inhibition was 35% (ELANE; enzyme activity, inhibitor, fluorescence; 100 µM).
For `C[C@]12CCC[C@H]1[C@@H]1CCc3c(cc(I)c(O)c3I)[C@H]1CC2`, the inhibition was 11.7% (AKR1C2; enzyme activity, inhibitor, absorbance; 100 µM, pH 9).
